Assay results collected from several papers.
Numbered parts are unrelated; each lists some results of a single study. Positions count from the first letter of the parent shown.

Series 1
Target: RNA binding protein fox-1 homolog 2, RRM domain, GST-SBP tag (RBFOX2, Homo sapiens, UniProt O43251-10, residues 100-194)
Method: RNA Bind-n-Seq
Molecule type: RNA
Matrix: in vitro
Tested at: 365 nM
Setting: natural RNA segment, single round, ends assumed
Relative to: no-protein control
Direction: higher = stronger binding
Endpoint: RBNS enrichment (R)
Residues (chain): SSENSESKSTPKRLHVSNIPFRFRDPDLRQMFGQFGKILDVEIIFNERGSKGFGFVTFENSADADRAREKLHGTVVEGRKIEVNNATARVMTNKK
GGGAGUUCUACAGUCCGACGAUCGCAGCUCCCCAGUGGACAGUGUCAUUGUGCCCAGAGUGCUGCAAGGUGAGGCCUGCUGUGCUGCCCGCACACCUGAGUGCAAAACCAAGCACUGUGGGCAUGGUGUUUCCUGGAAUUCUCGGGUGCCAA: 0.232
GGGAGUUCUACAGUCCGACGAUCAGCCAGUUACAGCUCCCCGGCUCUUCUGUGUGGCAGAGCGUCGUUUCCGGGCCCUCAGGGCUGGGGAGCUCAGUUCCCAUUGCUUGUGCUCAGGGCUGAGUCUUAAAGAAUGGAAUUCUCGGGUGCCAA: 1.73
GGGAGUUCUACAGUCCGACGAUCCAGCCGUGUGUGCUGUGGAGCCGAGGCCGUCCUGCAGGAAGCCGCGUGACUCCCGCCUCCUCCCUGUGCUCUCUGGCUCUGGACUGUGACUGCGCCUGGAUUCUGCCAUUUGGAAUUCUCGGGUGCCAA: 0.375
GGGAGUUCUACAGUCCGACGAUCGGCACAUUCAUUCACCCCAACACUUCUAUCUAAAGGCCAAGGUUCUAGGGCUGCUAUGGUCACUAACACACUGAUUCUCCUUAAAGUAAUUCUCGAAGUGUGGAACAAAGUGGAAUUCUCGGGUGCCAA: 0.452
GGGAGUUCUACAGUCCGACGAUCUUUUUUUUAUAUAUAUAUAUAAAAAUAAACUUUACGUAGUGAAAUCUUCCAAGUCUUUUCUGGAAUUAUUAUAAAUACUUUAGUUUUAUUUUCUCAUCUUAAUCUCUCCAUGGAAUUCUCGGGUGCCAA: 1.74
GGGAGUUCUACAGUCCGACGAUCAAAGUGGAAAUUUUUCUCCCCUAUAUAAAAUUAUUCUGCCUAGCAGAAAUGCCAGAAAUAAAUUAAUUGCAUCUUAGUCUAAAUUUAAGUCCUUUGCCAUGAGGAAAAAGUGGAAUUCUCGGGUGCCAA: 2.08
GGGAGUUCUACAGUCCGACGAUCAAGUGCCCUUCAAAAGGACCCUGUUCACUGCUGCACUUUUCAAUGAAUUAAAAUUUAUUUCUGUUCUGUGGGAAUGUGUCCUUUGUUUUAGUUCACAAGUAGUAAUUUUGUGGAAUUCUCGGGUGCCAA: 0.338
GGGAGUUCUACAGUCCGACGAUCGACCUCCGUUUGUACAUUCCAUCACACCCAGCAAUAGCUGUACAUUGUAGUCAGCAACCAUUUUACUUUGUGUGUUUUUUCACGACUGAACACCAGCUGCUAUCAAGCAAUGGAAUUCUCGGGUGCCAA: 0.488
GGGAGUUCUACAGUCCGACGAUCCAGUGAGAACCACUGAUUUUUUCCACUGACCUACUGAAUAUCUAGCAUCCUUAGAUUGGCUCAACUGUUACUUUCCUAAGGAGUCCUUCUACAGAAUAGGUCAGAUCUUGUGGAAUUCUCGGGUGCCAA: 0.499
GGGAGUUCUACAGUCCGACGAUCAUAGACAAAACCUUUAUCCCGCGUGCUUUGCUUCACCUUGUGCUAUAUAGCUCUUUGGCUCGUGAACCUAAUUGUAAACUUUCAGGUAUUUUUGUACAAAUAAGGGACUGUGGAAUUCUCGGGUGCCAA: 0.6
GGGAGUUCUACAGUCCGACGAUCAGGUGUCAGAACAGUCUCACAAUGACAUCAGUUUAGACACAUGCCAUAUACACUUGGAUCUCUGAGAGCAGAAACCCAACUCUCACUAGACAUACCUGUGAUGGAACACAUGGAAUUCUCGGGUGCCAA: 0.296
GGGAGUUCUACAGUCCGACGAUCUCUAAUUCUAGCCAAGCUUCUGUGUGAAGCUAUAAGGUCUGUGAAUGCCAUACGGCCCUUUAUUGCCAUCCUAUACUUGUAAAUACGAUCCUGCUCUCAAGUGAAAUGAGUGGAAUUCUCGGGUGCCAA: 1.01

Series 2
Target: Histone acetyltransferase KAT6A, both winged helices, GST fusion (KAT6A, Homo sapiens, UniProt Q92794, residues 1-181)
Method: protein binding microarray
Molecule type: double-stranded DNA, one strand shown
Matrix: in vitro
Tested at: not given
Setting: 8-mer, flanks averaged, mean of 2 arrays, mostly near background
Relative to: not given
Direction: higher = stronger binding
Endpoint: E-score
Residues (chain): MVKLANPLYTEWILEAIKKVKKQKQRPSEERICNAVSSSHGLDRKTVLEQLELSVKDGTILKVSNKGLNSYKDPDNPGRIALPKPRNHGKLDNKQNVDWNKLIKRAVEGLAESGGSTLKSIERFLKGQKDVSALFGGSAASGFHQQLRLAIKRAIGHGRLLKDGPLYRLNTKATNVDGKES
TCCGCACA: 0.168
CAAATGAG: -0.255
CCCCCGGC: 0.223
GCGTTGGA: 0.0803
GGCCTCTA: -0.032
ATAAACAA: -0.0377
CAATGCAC: 0.0547
AGCTGCTA: -0.168
ATCCGGTG: 0.158
AGTCTAAC: -0.0978
ACAGATCA: -0.0333
CAGCCTCC: -0.17
GACGCCAC: 0.131
AATCTCGG: 0.137
CTGTGGAA: -0.162
GGAACTTA: 0.0152
CAGATACC: -0.0684
TCAACTGA: -0.178
TACGCTCA: 0.119
AGGCCCAA: -0.00237
ATATTAAA: 0.0445
ACACGCCA: 0.114

Series 3
Target: CCND3, cyclin fold, Cln2 fusion (human)
Method: yeast growth competition, sequencing
Matrix: yeast
Setting: strong parent motif
Relative to: not given
Direction: higher = stronger binding
Endpoint: normalised enrichment score
Parent: INSM1 docking peptide (human); PKAIRKLHFEDEV
PKGIRKLHFEDEV [A3G]: 0.911
PKAIRKKHFEDEV [L7K]: -0.0913
PKAIDKLHFEDEV [R5D]: 0.0376
PKAIRKWHFEDEV [L7W]: -0.212
PKLIRKLHFEDEV [A3L]: -0.166
PKAIRKLHKEDEV [F9K]: -0.366
PKAIRGLHFEDEV [K6G]: -0.0423
PRAIRKLHFEDEV [K2R]: 1.29
PKAIRKLEFEDEV [H8E]: 1.47
PKAIRKLHFEHEV [D11H]: 0.511
PKAERKLHFEDEV [I4E]: 0.165
PKAIRKLHSEDEV [F9S]: -0.0333
PKAIRCLHFEDEV [K6C]: 0.58
PKAICKLHFEDEV [R5C]: 0.542

Series 4
Target: RING finger protein unkempt homolog, zinc fingers 1-6, SBP tag (UNK, Homo sapiens, UniProt Q9C0B0, residues 30-357)
Chain of UniProt Q9C0B0 (30-357, looked up): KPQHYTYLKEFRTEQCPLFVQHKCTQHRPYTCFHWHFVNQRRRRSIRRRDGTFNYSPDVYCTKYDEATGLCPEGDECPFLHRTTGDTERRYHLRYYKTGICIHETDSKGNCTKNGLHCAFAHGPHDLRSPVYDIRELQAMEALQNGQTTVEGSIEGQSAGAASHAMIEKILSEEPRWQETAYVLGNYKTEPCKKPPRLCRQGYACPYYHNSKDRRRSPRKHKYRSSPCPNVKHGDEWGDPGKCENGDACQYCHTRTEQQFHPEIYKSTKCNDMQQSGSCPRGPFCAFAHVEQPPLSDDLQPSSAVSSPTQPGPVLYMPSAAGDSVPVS
Method: RNA Bind-n-Seq
Molecule type: RNA
Matrix: in vitro
Tested at: 100 nM
Setting: RNA with constant flanks, vertebrate orthologous sites, ends assumed
Relative to: input RNA pool
Direction: higher = stronger binding
Endpoint: bound/input enrichment
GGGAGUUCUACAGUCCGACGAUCACACUUACAUUGUGGCAAAUAGUCAACAUGGAAGUAGACCGGCUCUGCUGAUUUGAAAUUUAGAUUUUUUAAUUAUGUACUGGGGACAGGUUUUUGUCGCUUUACAUUGCUUCCUAGUUUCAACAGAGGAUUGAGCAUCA: 3.31 ratio
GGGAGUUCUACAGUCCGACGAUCCAUUUUCUUGUUUUAGGUAUCAUUGCCCAAUGCCCAAGAUCUUUUAUGUUCAGCUGACUGUAGGAAAUAAUGAAUUUUUUGGAGAAGGAAAGACUCGGCAAGCUGCUAGACACAAUGCUGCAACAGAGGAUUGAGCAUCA: 1.15 ratio
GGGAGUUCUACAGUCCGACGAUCUGUUACGGUCAUACCAGCCUGUUAACCUCUCGUCUGUGCACAGCUUCAAAUGUUACCGGCUAGUUAGAUUUUUAUUUAAAAUAUGGAAAACUGCUUUUCCCAAGACAUUUAAAAAGAAACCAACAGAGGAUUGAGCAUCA: 1.15 ratio
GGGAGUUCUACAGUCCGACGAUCGUGUUUUGUACAGGGCAUUCUCUGUACUAGUUUGUUGUGGUUAUAAAACAAUUAGCAAAAUAGCCUACAUUUGUAUUUAUUUUCUAUUCCAUAUUUUUGCGCCACGUUGUUUUCUCUCAACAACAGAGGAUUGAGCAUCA: 0.849 ratio
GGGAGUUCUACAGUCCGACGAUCUGCAUUAUUUGACCAGAGUUGAGGUGACAGAGUUUGAAGACAUCAAAUCAGGUUACAGAAUAGAUUUUUAUUUUGACGAGAAUCCAUACUUUGAAAAUAAAGUUCUCUCCAAAGAGUUUCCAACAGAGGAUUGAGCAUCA: 0.956 ratio
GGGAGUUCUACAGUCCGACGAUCCAUGUAGUUCGUUUUUAAUUUCAAGCAAAUCUUAUUGUACUUGAAUGUGCCCUGUUUUGUUAGCACACCUAGACUUGCUGUAACUGUACUCAUGUCCCAGUAUGUACCUUCUUUCUAUGACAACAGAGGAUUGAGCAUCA: 1.17 ratio
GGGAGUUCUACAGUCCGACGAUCUAGCAAGAGAACCAAGCAGUAGUAUUGUGGAUUUUUUUUUUUUGUAAAUGUAAAAAUAAUUAGAUCCAGACUUUGUUUCCUUCUUCAAUUUUAAAAAUAAAAAAUACCUCAGUGCUAUGUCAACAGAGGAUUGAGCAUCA: 0.364 ratio
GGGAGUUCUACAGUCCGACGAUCUUUAAAGUCAUUUUUUCACGUUUCCUGUAAAUAAUGGAUAAUCAUUUUUAUUUUAUUUUUAAGUGCUGUUUUAACAAUGUGGAUAGACCAUAAAUGUACUUGCUGAAUUCAUUCAUUUUUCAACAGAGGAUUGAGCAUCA: 0.497 ratio
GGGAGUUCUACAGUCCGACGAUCGAAUUGAAAAACCAGAGCUUCACCCAGGCCCCUGUUCACUAGGAGAUACAAAUAUUACAUUAGAAGAACAAUUAAACUCCAUAAAUUUAUCUUUUCAGGAUGAUCCAGAAUCCAGUACCACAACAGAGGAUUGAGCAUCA: 1.4 ratio
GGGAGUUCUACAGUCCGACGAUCUUGGGACCAGCUCUCCAAAUAAGAAUAGUAGUAAAAAAAAUAAGCAAAAUGAUAUUUGUAUAGAAAAAACAGAAGUUAAAUCAUGUAAAGUAAAUGCUGCCAACAUAGCAAGCCCUAAAGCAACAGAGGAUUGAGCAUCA: 3.24 ratio
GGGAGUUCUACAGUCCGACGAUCCAACGCCAUGGUGGAGGGCUCCGAGCUCAAAAAGGUCCGCUCCAACUCGAGGAUUUACCACCGGUAUUUCUUGCUGGAUGCCGACAUGCAGAGCCUGAGGUGGGAACCAUCCAAGAAGGACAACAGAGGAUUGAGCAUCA: 0.189 ratio

Some of these lines once more (series 2):
ACAGATCA: -0.0333
CAGCCTCC: -0.17
GACGCCAC: 0.131
AATCTCGG: 0.137
